# Assay results pooled from the literature.
# Parts stem from different laboratories: compare values within a part only. Substitutions count along the parent as printed.

# Sample 1
# Target: Protein C-ets-1 (ETS1, Homo sapiens, UniProt P14921, residues 1-441, K379A, full length assumed)
# Technique: protein-binding microarray
# Form: double-stranded DNA, one strand shown
# Matrix: in vitro
# Tested at: not given
# Setting: k-mer, scored over probes, only values ≥0.25
# Direction: higher = stronger binding
# Residues (chain): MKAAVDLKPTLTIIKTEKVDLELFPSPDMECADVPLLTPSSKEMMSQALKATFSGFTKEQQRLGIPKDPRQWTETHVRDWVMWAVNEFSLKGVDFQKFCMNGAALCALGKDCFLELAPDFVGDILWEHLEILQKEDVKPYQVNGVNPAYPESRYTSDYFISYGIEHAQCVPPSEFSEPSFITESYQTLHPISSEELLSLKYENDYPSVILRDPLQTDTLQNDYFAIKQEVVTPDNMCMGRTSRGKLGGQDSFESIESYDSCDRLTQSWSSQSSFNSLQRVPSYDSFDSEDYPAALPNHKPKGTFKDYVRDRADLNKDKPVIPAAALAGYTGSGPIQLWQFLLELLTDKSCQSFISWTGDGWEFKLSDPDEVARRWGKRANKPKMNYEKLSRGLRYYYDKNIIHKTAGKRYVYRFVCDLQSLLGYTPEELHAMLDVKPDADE
Oligonucleotide,E-score
TCTGTACA,0.256
AACTAATA,0.297
CGGGGTTC,0.295
CCCGTCAA,0.274
GTCCGGAA,0.267
CACCGCCG,0.337
AAACTACA,0.301
ACCGACAG,0.383

# Sample 2
# Target: BATF2, bZIP domain (human)
# Technique: DHFR protein complementation
# Matrix: yeast
# Setting: single substitutions, most at no-binding floor
# Reference: wild-type JUN-FOS pair
# Direction: higher = stronger binding
# Starting sequence: JUN, bZIP domain (human); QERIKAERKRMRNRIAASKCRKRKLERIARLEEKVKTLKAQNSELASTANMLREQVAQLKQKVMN; partner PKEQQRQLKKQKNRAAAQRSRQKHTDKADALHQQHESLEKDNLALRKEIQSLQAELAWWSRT
Change,binding fitness [natural log]
I28H,-0.477
V35F,-0.975
Q41F,-1.2
E44I,-0.42
A40S,-0.363
E32F,-1.08
E33C,-0.621
A49W,-1.05

# Sample 3
# Change: G23R
# Target: ABI1, truncated, D143A, DHFR fusion (Arabidopsis thaliana)
# Technique: DHFR PCA, deep sequencing
# Matrix: yeast
# Setting: methotrexate growth selection, single substitutions
# Reference: wild-type fitted maximum
# Direction: higher = stronger binding
# Starting sequence: PYL1, truncated, DHFR fusion (Arabidopsis thaliana); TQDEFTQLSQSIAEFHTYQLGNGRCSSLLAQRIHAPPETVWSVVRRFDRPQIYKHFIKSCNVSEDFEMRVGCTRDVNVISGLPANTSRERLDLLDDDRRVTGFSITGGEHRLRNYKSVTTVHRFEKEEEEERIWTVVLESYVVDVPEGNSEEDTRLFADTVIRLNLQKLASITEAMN
setting,relative binding score [%]
together with: (+)-ABA 0.0091 µM,21.7
together with: (+)-ABA 200 µM,96.2
together with: (+)-ABA 17 µM,75.4
together with: (+)-ABA 0 µM,19.2
together with: (+)-ABA 58 µM,83.2
together with: (+)-ABA 0.39 µM,31.7

# Other studies, line by line
# Starting sequence: PafA, mature enzyme, eGFP fusion (Elizabethkingia meningoseptica, UniProt Q9KJX5); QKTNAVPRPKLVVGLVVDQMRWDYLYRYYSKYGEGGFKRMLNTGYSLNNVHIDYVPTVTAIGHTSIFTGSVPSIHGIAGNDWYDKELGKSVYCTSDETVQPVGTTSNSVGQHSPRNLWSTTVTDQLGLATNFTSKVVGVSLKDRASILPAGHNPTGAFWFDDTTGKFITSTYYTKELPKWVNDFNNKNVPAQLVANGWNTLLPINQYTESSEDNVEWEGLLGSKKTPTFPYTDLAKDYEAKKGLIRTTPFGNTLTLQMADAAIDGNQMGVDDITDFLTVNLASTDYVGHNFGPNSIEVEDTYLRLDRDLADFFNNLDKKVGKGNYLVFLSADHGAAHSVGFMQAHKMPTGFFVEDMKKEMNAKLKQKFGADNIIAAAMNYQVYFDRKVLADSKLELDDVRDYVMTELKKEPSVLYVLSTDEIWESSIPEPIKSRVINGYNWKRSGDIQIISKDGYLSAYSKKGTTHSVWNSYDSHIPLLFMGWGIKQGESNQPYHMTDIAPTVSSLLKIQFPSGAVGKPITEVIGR
Change,target,assay,test system,setting,scale,endpoint,value
T521G,"tungstate, free oxyanion",microfluidic competitive inhibition,"in vitro, cell-free expressed","not given, derived from inhibition constants, unchanged parent 2230 nM",lower = stronger binding,oxyanion analog dissociation constant,2.03 µM

# For quick reference, copied from above (sample 3):
setting,relative binding score [%]
together with: (+)-ABA 200 µM,96.2
together with: (+)-ABA 0.39 µM,31.7
together with: (+)-ABA 17 µM,75.4
